# Measurements gathered from unrelated publications.
# Numbered parts are unrelated; each lists some results of a single study. Positions count from the first letter of the parent shown.
# Sequence of UniProt O24410 (whole entry, looked up): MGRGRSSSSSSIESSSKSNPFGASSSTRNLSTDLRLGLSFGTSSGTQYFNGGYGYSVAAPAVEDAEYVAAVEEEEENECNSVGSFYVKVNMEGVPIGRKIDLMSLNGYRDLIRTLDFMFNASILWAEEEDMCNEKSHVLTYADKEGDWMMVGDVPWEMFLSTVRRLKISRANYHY
# Sequence of UniProt P93022 (whole entry, looked up): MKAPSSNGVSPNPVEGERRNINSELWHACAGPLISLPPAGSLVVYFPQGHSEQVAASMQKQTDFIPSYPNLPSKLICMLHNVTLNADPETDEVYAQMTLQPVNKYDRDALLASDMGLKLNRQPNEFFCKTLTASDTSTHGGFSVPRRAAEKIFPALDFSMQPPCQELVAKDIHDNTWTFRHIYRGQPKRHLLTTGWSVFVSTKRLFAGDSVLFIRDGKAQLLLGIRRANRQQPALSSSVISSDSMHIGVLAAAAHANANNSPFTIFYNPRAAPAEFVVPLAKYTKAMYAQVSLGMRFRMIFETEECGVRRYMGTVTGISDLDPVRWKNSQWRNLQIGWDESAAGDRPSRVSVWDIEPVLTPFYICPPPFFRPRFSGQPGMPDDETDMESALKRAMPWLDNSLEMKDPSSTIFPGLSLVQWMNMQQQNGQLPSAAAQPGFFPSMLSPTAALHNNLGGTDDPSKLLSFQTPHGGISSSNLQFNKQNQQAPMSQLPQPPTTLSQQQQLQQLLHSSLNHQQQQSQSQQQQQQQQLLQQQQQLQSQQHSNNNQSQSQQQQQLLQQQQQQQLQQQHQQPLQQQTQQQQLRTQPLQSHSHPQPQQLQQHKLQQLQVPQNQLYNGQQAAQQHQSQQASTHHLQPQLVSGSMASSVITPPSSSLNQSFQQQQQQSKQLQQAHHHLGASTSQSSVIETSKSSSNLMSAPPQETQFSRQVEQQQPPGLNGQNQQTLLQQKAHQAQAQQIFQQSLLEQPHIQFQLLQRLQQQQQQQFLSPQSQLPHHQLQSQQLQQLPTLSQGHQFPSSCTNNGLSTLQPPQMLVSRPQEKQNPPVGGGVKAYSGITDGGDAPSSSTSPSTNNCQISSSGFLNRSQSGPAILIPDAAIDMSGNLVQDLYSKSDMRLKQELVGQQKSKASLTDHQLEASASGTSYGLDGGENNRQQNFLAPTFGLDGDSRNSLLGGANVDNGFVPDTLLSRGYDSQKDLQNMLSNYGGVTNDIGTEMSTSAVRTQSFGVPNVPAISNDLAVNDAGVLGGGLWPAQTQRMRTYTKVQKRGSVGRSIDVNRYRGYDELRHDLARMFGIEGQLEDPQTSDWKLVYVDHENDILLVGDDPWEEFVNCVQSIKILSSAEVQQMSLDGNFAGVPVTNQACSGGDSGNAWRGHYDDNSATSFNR
# Sequence of UniProt Q9C5X0 (whole entry, looked up): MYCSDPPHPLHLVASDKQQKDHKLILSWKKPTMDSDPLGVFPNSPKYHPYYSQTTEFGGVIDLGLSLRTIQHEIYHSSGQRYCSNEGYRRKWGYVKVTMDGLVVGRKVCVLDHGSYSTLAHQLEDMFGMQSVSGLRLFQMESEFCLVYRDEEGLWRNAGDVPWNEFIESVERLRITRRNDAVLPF
# Sequence of UniProt Q9SKN5 (whole entry, looked up): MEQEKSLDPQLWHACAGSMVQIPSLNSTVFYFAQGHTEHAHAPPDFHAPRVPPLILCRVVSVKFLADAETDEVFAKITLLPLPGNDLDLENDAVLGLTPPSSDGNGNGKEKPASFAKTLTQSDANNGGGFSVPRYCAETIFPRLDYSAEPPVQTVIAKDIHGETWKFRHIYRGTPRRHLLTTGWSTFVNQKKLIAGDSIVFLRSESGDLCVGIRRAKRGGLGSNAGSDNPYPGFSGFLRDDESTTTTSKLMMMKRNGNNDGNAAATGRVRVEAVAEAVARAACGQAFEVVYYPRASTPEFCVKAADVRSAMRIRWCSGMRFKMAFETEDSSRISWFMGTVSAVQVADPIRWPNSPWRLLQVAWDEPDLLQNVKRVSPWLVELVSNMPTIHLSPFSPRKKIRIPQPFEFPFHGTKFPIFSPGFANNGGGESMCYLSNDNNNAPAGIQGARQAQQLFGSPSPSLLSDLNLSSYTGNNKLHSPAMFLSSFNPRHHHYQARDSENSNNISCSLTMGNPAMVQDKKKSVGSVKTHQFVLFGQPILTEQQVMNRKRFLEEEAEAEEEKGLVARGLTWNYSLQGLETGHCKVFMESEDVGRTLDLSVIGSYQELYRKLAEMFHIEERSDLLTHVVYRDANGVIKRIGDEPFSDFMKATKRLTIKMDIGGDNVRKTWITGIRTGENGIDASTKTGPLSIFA

# Series 1 — method: DHFR PCA, deep sequencing; medium: yeast; with: (+)-ABA 1.4 µM; baseline: wild-type fitted maximum; reading: higher = stronger binding
# Target: ABI1, truncated, D143A, DHFR fusion (Arabidopsis thaliana)
# Setting: methotrexate growth selection, single substitutions
# Starting sequence: PYL1, truncated, DHFR fusion (Arabidopsis thaliana); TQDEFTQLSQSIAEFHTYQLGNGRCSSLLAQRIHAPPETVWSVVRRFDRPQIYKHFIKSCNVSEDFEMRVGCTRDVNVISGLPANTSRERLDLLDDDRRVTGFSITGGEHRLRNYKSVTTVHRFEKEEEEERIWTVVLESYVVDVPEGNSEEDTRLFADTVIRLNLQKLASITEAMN; partner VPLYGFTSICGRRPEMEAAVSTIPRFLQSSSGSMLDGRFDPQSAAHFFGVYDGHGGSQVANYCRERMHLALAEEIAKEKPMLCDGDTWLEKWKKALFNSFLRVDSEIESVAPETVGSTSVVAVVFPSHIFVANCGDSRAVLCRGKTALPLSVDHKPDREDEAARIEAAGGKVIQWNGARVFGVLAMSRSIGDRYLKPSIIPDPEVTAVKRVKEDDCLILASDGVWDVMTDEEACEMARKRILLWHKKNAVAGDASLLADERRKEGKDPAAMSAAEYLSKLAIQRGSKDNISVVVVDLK
Variant,relative binding score
D95Q,9.45%
C25N,-31.7%
A13R,50.9%
V161F,36.1%
R132D,91.2%
F157L,26.4%
E38K,16.1%
V121Q,-9.88%
D95C,5.36%

# Series 2 — method: RNA Bind-n-Seq; molecule type: RNA; medium: in vitro; concentration: 100 nM; baseline: input RNA pool; reading: higher = stronger binding
# Target: RING finger protein unkempt homolog, zinc fingers 1-6, SBP tag (UNK, Homo sapiens, UniProt Q9C0B0, residues 30-357)
# Sequence of UniProt Q9C0B0 (30-357, looked up): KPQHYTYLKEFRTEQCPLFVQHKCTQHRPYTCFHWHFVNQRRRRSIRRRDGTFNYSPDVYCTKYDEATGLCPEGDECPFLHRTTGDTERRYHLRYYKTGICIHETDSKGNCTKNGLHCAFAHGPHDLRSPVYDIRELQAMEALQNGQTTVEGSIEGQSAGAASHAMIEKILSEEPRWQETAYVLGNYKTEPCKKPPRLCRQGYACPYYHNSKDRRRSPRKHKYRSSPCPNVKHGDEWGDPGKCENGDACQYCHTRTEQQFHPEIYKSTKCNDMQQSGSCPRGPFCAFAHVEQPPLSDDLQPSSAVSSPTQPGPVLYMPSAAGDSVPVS
# Setting: RNA with constant flanks, vertebrate orthologous sites, ends assumed
# All sequences stand within: GGGAGUUCUACAGUCCGACGAUC … CAACAGAGGAUUGAGCAUCA
Sequence,bound/input enrichment
UACUAGCGUCAUACCAGCAUAUUAACUAGUCAUAUGUGCACAGCUUAAAAGGUAACCGUUUAGUUAUAUUUUUUAAUUUAAGAACGGCUUUUUCCCAAGACUGAAAAAGAAGCUACAAUU,1.08 ratio
GUGACUUUGGAAGUCCGCACAGUGUCAGUGCAGAUACUACUUAGUCCGGGGCCUGGUGGCUGGGCUCAUUUUCUUCUUUCCAAUCUGAGGUCUCUGCCACAAACAUGCUCCGCCACAUCU,0.456 ratio
UCAGUCUUCCACGUAGGGUUGGCCUCAAAUCUAUAGGAUUUAUGACAAAUGUAUUAUAUCUAGUUAAGUUGAGUUUAAUAUUUUUUUAUUAGCCUGUAAAUAAAGAUGGCAUCUUCUACA,0.694 ratio
UUGGGACCAGCUCUCCAAAUAGGAAUAGUAGUAAAAAAAAUAAGCAAAAUGAUAUUUGUGUAGAAAAAACAGAAGUUAAAUCAUGUAAAGUAAAUGCUGCUAGCGUUCCAGGUUCUAAAG,0.681 ratio
AUAGCAGCAGCACAGGCUGUUUGAGCUUUGGGAAAAUGAGCUUUGCUUUUUAUAUUUAAAUAGGAUACUUUUAUAUGAUGGGUGCUUUGAGUGUGAAUGCAGCAGGCUCUCAUUUCAGAG,1.23 ratio
UCAGUCCCCUGGGCUGGGACAGAUUUUUUUUAACGUCUUGAAACUUAAAUUCUGUGCUUGUAGGAGACUGUAACCUUUUUGUCUUUUUUUUUUUACACGAAACAACUUCCACCUCCAGUG,0.388 ratio
UAUCUUUAGGAUGAAGCUCUUGCACCAGGUGUCACGGGUCUGGAAAACAGAUGGCUUGACGAGUUGUUCUUAUAAAUUAUUGUCUGUGGAACACAAUCCUUUAUAUAUCAACAUCACAGU,0.686 ratio
AUGCAUUUUGCCACUUGGAUGUGGUCUGCACUGGAAGCUGCUGGCCCCUCCACAACAACACAUAAAAUGUUUGUCUUUUUUUAAAAUGUUAAAACUGAAUUGAAUUUACUAAAAAUGUAA,0.24 ratio
GGGAUAUAUUGAAUAGUAUUAAACAUUUUUGUCUUCCUUUACCUUUUAUCCCUUAAUAUCUAGUCUACUUUUUUAAAUUUCAGACUUCAGUACUCUUUGAAUUGAUAAUUCCAAUUUUCA,0.874 ratio
GCACAUGCCGCUCUCACCAAAAGCAAACUGCCACUUAUCAAAUUUCAUUCAGAGCUGUUUUAGUGUUUCCUAUUCCCUACCCUUCCCCCUCCUUUCAAUGCUGAAAUAUCCUAAGUUGUC,2.01 ratio
GGGCGGCCCGUGGGGGAAUUCCCUGCCUUGGCCUUACCUCCCCUUCCUGCCACUUGCCCCUAGUUUUUUUUUUUUUUUUACCACCAUGUGAUUAAGGUCGGCUCUGCCUCCCCCGACCCA,9.32 ratio

# Series 3 — Molecule: B1 (IAA14); method: two-hybrid; baseline: out of 4 tests; reading: higher = firmer interaction
# B1: IAA14 (Arabidopsis thaliana, UniProt Q38832); chain MNLKETELCLGLPGGTETVESPAKSGVGNKRGFSETVDLKLNLQSNKQGHVDLNTNGAPKEKTFLKDPSKPPAKAQVVGWPPVRNYRKNVMANQKSGEAEEAMSSGGGTVAFVKVSMDGAPYLRKVDLKMYTSYKDLSDALAKMFSSFTMGSYGAQGMIDFMNESKVMDLLNSSEYVPSYEDKDGDWMLVGDVPWPMFVESCKRLRIMKGSEAIGLAPRAMEKFKNRS
partner,setting,positive tests
"ARF10 575-693 (Arabidopsis thaliana, UniProt Q9SKN5)",,0
"IAA20 (Arabidopsis thaliana, UniProt O24410)",weak activation fusion,1
"IAA34 (Arabidopsis thaliana, UniProt Q9C5X0)",,3
"ARF7 1030-1164 (Arabidopsis thaliana, UniProt P93022)",,3

# Series 4 — method: RNA Bind-n-Seq; molecule type: RNA; medium: in vitro; concentration: 365 nM; baseline: no-protein control; reading: higher = stronger binding
# Target: RNA binding protein fox-1 homolog 2, RRM domain, GST-SBP tag (RBFOX2, Homo sapiens, UniProt O43251-10, residues 100-194)
# Setting: natural RNA segment, single round, ends assumed
# All sequences stand within: GGGAGUUCUACAGUCCGACGAUC … UGGAAUUCUCGGGUGCCAA
# Target sequence (chain): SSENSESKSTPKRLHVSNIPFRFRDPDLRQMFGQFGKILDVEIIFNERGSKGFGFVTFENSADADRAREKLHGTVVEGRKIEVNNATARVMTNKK
Sequence,RBNS enrichment (R)
UCUCAUUUAUAAGUUAGACAUUCAUUCACUAGAACAUUUAUGCUCAGAAUCUUCCUUAAGAGGGUGUCCAGUAUUAACUUUGAUUGGGAUUAAUCCAGGCAAAAGAAGAG,0.495
AAAAUGAAGAAAAUCAACAAGGACCGAGCAAAAGACGAGUGAGCCUUUUAGGGGCUCAUUUAAAAAGAGAGCAAGCUAGAAAGAAAAAGAAAGGACUGUCCGUCUCCCUC,0.463
AGGCCACCCUGUAGUACAGGGAUGAGUCUUGGUGUGUUCUGCAGGGACAGGCCUGGAUGAUCUAGCUCAUACCAAAGGACCUUGUUCUGAGAGGUUCUUGCCUGCAGGAG,1.76
AUCAUCACCUGCUCCACUCUCAAUAUGGCUUUUAUCAGCAUCUUUUCUCUGUAGCUCCAGGGGAAUCUUUUUCUCUAAAACGUUUAUGCCCUCGCUUUGGCUAGAAACAC,0.585
ACUUUGUGAACUGACUUGCUGUAUUUGCACUUUGAGCUCUUGAAAUAAAUGUGAUUUUUGUGUGAUUAUCUGGUUUCCAGUUUUAAACAUUAACUGUCACCUUUUAUUCU,0.352
UCUCUGUGAAUAAAUCCUUGUUAAGUUAACCCUUUGCUCUUCCUCCCAUGUGUAUUUUCUUACAUACUGUGAAUGUGAAGACCCUAACUGGUACACUUGAUCUUAUGUCC,0.365
ACUAAUUGAAAAAUAUCAAAUUUACUAUUAUAAUGUAAGAGAGAAAUAUAGGUCAUAACUUCGGCACGACUUUAAGUACUAAGCAAUAAUGGAGUCGUCAGACGCCUCCG,0.249
GCCCACCAUGUGGCUGCAGGCCAAGCUCUUCAUUGCUGACCAUGAAGAGACCUAGUUACCUGCCAAGGGAUUCCCCUUCCCUCCUCCUCAGGGUGGGGUGAACAAGGCUC,0.407
GGGACAGAUUGAGGAGGAAGUGGGCUCUGAGGCUGCAGGGCUGGAAGUCCUUGCCCACUUCCCACUCUCCUGCCCCAAUCUAUCUAGUACUUCCCAGGCAAAUAGGCCCC,0.435
CCAGAGAUAUGGACUUUAUUUUUGUUCCCAGGACUGAUGUAGCUUAGUGGCAAGUGUCUCCCUGGCAUGUACUUAGCUGUAGAUUUGAUCCUCAUUGCUGGGACUGGGGA,1.01
GCCUCACUGUCCCAAUUCCCAAAUUUUUCUUACAGAGAUUCAGGGCCUUCAAGAGUCUUCUUAAUGUUCUCCCACAGGGCUCUUUCUGAGUGCCCUAUAAUCCCUCCCCC,0.496
ACAAAAAAAAAAAAAAGCCAUUAAUCUGCCAGUCAAGACUACAGUUAAAAUCCCCUUCGCACUGCAGCAGUGCCCACCCCCUUCAUGUGAUUGUACAGUAUUCAAACUUU,0.403

# Series 5 — target: CCNB3, cyclin fold, Cln2 fusion (human); method: yeast growth competition, sequencing; medium: yeast; setting: weak parent motif; baseline: not given; reading: higher = stronger binding
# Starting sequence: PLK5 docking peptide (human); IFRKVGQRLLTQC
Variant,normalised enrichment score
IFRKVGQRLLAQC [T11A],0.806
IFRKVGQRALTQC [L9A],0.416
IFRKVGQRLLTQA [C13A],0.473
IFRKVGARLLTQC [Q7A],0.347
IFRKVGQRLATQC [L10A],0.173
IFRAVGQRLLTQC [K4A],-0.0763

# Repeated from above (series 1):
Variant,relative binding score
E38K,16.1%
V121Q,-9.88%
D95C,5.36%
